# Experimental data pooled from the literature.
# UCHL1: Ubiquitin carboxyl-terminal hydrolase isozyme L1 (UCHL1, Homo sapiens, UniProt P09936)
# Chain of UniProt P09936 (whole entry, looked up): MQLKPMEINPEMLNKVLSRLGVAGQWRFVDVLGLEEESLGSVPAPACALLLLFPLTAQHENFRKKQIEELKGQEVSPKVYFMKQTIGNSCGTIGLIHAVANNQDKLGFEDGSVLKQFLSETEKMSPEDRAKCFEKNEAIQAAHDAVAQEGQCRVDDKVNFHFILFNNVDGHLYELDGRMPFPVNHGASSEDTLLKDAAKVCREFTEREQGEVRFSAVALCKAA
Structure (SMILES),target or system,assay,test system,conditions,scale,quantity,result
CO[C@H]1C[C@@H]2CC[C@@H](C)[C@@](O)(O2)C(=O)C(=O)N2CCCC[C@H]2C(=O)O[C@H]([C@H](C)C[C@@H]2CC[C@@H](O)[C@H](OC)C2)CC(=O)[C@H](C)/C=C(\C)[C@@H](O)[C@@H](OC)C(=O)[C@H](C)C[C@H](C)/C=C/C=C/C=C/1C,Trypanosoma cruzi,,"Vero, Tulahuen β-galactosidase",,relative to: Vero CC50 over T. cruzi IC50,selectivity index,2
Cl.Fc1cccc(Nc2nc(NCC3CCCO3)c3ccccc3n2)c1 (centres unmarked),Trypanosoma cruzi,"mRNA translation, item: Renilla luciferase reporter",cell-free translation extract,"40 µM, 2 h",,inhibition,65.4%
O=C(Nc1cccc2c(=O)cc(-c3nnn[nH]3)oc12)c1ccc(OCCCCc2ccccc2)cc1,Trypanosoma cruzi,,"Vero, Tulahuen β-galactosidase",,relative to: Vero CC50 over T. cruzi IC50,selectivity index,0.8
c1ccc2c(NCC3CCCO3)nc(Nc3ccncc3)nc2c1 (centres unmarked),Trypanosoma cruzi,"mRNA translation, item: Renilla luciferase reporter",cell-free translation extract,"40 µM, 2 h",,inhibition,53.5%
Cc1cc(C)c(C#N)c(SCC(=O)c2ccccc2C)n1,Trypanosoma cruzi,,"MRC5, Tulahuen, beta-galactosidase",intracellular amastigotes,,EC50,0.1 µM
C#CCC(Cc1cnc2nc(N)nc(N)c2n1)c1ccc(C(=O)N[C@@H](CCC(=O)O)C(=O)O)cc1 (some centres unmarked),Trypanosoma cruzi,,"Vero, Tulahuen β-galactosidase",,relative to: Vero CC50 over T. cruzi IC50,selectivity index,4.2
Cc1cc(C)c(C#N)c(OCC(=O)c2ccccc2)n1,Trypanosoma cruzi,,"MRC5, Tulahuen, beta-galactosidase",intracellular amastigotes,,EC50,20.7 µM
CC(Cl)C(=O)Nc1ccc(C(=O)N(C)C2CCCN(C)C2)cc1 (centres unmarked),UCHL1,"covalent, intact protein LC-MS",,12.5 µM,,labelling,9.78%
CN(C)c1nc(NCC2CCCO2)c2ccccc2n1.Cl (centres unmarked),Trypanosoma cruzi,"mRNA translation, item: Renilla luciferase reporter",cell-free translation extract,"40 µM, 2 h",,inhibition,45.9%
CO[C@H]1/C=C/O[C@@]2(C)Oc3c(C)c(O)c4c(c3C2=O)C2=NC3(CCN(CC(C)C)CC3)NC2=C(NC(=O)/C(C)=C\C=C\[C@H](C)[C@H](O)[C@@H](C)[C@@H](O)[C@@H](C)[C@H](OC(C)=O)[C@@H]1C)C4=O,Trypanosoma cruzi,,"Vero, Tulahuen β-galactosidase",,relative to: Vero CC50 over T. cruzi IC50,selectivity index,2.4
C#CCN1C(=O)C(=NNC(=O)OCC)c2cc(Br)ccc21,UCHL1,"covalent, intact protein LC-MS",,12.5 µM,,labelling,12.3%
COC(=O)N[C@H](C(=O)N1CC2(CC2)C[C@H]1c1nc(-c2ccc3c(c2)C(F)(F)c2cc(-c4ccc5[nH]c([C@@H]6[C@H]7CC[C@H](C7)N6C(=O)[C@@H](NC(=O)OC)C(C)C)nc5c4)ccc2-3)c[nH]1)C(C)C,Trypanosoma cruzi,,"Vero, Tulahuen β-galactosidase",,relative to: Vero CC50 over T. cruzi IC50,selectivity index,873
Cc1cc(C)c(C#N)c(NCC(O)c2ccc(F)cc2)n1 (centres unmarked),Trypanosoma cruzi,,"MRC5, Tulahuen, beta-galactosidase",intracellular amastigotes,,EC50,33.3 µM
Cl.Oc1ccc(Nc2nc(NCC3CCCO3)c3ccccc3n2)cc1 (centres unmarked),Trypanosoma cruzi,"mRNA translation, item: Renilla luciferase reporter",cell-free translation extract,"40 µM, 2 h",,inhibition,57.6%
Cc1cc(C)c(C(N)=O)c(SCC(=O)c2ccc(F)cc2)n1,Trypanosoma cruzi,,"MRC5, Tulahuen, beta-galactosidase",intracellular amastigotes,,EC50,12 µM
O=C(Cn1ccnc1[N+](=O)[O-])NCc1ccccc1,Trypanosoma cruzi,intracellular amastigote growth,"Vero, Tulahuen, DTU VI",,relative to: Vero TC50 over amastigote IC50,selectivity index,> 89.7
Cc1cc(C)c(C#N)c(SCC(=O)N2CCOCC2)n1,Trypanosoma cruzi,,"MRC5, Tulahuen, beta-galactosidase",intracellular amastigotes,,EC50,49 µM
COn1cc(CNC(=S)SC)c2ccccc21,Trypanosoma cruzi,"parasite growth, [3H]uracil incorporation","rat L6E9 myoblasts, amastigote",72 h,,IC50,1200 nM
COc1ccc(C(=O)CSc2[nH]c(=O)cc(C(F)(F)F)c2C#N)cc1,Trypanosoma cruzi,,"MRC5, Tulahuen, beta-galactosidase",intracellular amastigotes,,EC50,15.4 µM
O=C(Cn1ccnc1[N+](=O)[O-])NCc1ccccc1,Trypanosoma cruzi,trypomastigote release,CHO,5 µM,,inhibition,64%

# A few entries again:
Structure (SMILES),target or system,assay,test system,conditions,scale,quantity,result
COc1ccc(C(=O)CSc2[nH]c(=O)cc(C(F)(F)F)c2C#N)cc1,Trypanosoma cruzi,,"MRC5, Tulahuen, beta-galactosidase",intracellular amastigotes,,EC50,15.4 µM
O=C(Cn1ccnc1[N+](=O)[O-])NCc1ccccc1,Trypanosoma cruzi,trypomastigote release,CHO,5 µM,,inhibition,64%
